# Measurements pooled from the literature.
# Parts stem from different laboratories: compare values within a part only. Several values in a cell are separate wells, animals, samples, runs or records.
# Chain of UniProt Q8WTQ7 (whole entry, looked up): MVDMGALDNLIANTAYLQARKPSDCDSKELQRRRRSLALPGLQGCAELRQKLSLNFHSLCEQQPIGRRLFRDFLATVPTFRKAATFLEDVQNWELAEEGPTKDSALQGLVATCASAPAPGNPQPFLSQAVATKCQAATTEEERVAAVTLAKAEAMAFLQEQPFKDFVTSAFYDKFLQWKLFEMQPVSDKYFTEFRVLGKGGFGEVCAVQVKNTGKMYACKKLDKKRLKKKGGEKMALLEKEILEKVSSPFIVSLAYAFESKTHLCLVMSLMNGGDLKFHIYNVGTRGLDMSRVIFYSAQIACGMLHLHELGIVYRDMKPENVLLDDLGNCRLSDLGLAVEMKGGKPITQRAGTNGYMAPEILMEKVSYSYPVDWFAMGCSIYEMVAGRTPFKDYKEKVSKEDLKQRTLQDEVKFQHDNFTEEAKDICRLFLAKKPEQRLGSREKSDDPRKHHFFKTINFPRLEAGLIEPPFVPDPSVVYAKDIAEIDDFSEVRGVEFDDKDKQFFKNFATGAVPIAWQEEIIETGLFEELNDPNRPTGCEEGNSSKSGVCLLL
# Chain of UniProt Q32MK0 (whole entry, looked up): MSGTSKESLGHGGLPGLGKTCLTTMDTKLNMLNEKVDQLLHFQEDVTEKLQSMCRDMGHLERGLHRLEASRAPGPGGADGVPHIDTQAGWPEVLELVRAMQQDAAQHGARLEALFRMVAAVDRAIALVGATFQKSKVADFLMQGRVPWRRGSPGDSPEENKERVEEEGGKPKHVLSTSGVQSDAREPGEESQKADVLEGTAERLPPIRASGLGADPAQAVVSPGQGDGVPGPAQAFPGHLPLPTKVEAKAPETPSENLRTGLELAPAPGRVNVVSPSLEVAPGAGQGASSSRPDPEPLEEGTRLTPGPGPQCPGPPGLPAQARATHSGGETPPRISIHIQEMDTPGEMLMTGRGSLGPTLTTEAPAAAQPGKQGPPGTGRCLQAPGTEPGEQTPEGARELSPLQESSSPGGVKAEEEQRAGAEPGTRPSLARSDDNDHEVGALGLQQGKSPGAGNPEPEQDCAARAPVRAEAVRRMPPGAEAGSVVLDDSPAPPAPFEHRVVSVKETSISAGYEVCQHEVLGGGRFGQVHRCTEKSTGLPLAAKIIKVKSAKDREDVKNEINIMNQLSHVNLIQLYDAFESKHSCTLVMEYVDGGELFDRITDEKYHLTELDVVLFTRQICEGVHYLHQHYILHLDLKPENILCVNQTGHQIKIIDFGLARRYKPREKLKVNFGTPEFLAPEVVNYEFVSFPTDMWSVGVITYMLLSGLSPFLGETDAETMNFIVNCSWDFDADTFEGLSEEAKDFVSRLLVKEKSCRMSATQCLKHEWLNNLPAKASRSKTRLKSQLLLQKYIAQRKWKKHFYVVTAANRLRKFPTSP
# Chain of UniProt Q02763 (whole entry, looked up): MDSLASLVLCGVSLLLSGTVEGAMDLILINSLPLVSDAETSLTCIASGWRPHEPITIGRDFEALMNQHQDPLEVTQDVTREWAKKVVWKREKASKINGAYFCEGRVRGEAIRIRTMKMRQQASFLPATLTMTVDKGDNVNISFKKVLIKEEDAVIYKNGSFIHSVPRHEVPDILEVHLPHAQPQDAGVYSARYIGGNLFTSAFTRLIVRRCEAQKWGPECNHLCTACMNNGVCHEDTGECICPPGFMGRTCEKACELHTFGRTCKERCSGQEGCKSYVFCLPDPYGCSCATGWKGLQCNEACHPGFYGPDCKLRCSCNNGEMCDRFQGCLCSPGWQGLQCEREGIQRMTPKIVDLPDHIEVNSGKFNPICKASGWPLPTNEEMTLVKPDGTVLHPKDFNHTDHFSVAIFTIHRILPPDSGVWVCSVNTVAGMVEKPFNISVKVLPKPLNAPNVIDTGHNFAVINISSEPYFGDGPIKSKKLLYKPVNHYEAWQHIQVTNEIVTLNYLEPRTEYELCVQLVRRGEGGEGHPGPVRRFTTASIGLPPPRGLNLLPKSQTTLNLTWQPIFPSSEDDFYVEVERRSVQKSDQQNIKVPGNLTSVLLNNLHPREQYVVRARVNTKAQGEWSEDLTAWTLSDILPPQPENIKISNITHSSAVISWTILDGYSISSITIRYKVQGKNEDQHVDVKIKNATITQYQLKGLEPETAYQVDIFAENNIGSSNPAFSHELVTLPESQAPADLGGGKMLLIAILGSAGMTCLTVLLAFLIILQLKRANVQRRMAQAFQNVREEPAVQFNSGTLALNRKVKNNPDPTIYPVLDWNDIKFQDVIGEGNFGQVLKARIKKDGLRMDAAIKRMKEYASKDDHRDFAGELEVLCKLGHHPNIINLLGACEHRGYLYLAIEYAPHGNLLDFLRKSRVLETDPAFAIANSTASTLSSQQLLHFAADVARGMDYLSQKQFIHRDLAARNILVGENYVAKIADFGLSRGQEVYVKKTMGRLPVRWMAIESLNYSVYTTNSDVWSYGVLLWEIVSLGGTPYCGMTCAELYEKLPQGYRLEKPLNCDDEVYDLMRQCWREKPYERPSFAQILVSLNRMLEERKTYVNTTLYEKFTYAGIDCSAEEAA
# Chain of UniProt P23443 (whole entry, looked up): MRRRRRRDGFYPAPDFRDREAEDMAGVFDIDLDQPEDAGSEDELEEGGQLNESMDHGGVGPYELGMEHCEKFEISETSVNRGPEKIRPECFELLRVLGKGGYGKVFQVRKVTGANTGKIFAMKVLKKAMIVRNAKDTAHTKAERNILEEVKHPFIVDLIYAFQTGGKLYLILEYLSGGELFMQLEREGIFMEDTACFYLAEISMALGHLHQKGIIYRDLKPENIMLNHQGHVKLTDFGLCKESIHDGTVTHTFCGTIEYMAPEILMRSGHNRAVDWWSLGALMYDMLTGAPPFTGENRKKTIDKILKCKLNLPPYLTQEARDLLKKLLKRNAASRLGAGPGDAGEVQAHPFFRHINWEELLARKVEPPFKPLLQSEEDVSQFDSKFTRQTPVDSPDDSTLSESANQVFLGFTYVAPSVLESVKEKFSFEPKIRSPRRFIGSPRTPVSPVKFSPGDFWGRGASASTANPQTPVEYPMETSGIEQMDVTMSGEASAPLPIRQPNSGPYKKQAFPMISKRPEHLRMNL
# Chain of UniProt P42685 (whole entry, looked up): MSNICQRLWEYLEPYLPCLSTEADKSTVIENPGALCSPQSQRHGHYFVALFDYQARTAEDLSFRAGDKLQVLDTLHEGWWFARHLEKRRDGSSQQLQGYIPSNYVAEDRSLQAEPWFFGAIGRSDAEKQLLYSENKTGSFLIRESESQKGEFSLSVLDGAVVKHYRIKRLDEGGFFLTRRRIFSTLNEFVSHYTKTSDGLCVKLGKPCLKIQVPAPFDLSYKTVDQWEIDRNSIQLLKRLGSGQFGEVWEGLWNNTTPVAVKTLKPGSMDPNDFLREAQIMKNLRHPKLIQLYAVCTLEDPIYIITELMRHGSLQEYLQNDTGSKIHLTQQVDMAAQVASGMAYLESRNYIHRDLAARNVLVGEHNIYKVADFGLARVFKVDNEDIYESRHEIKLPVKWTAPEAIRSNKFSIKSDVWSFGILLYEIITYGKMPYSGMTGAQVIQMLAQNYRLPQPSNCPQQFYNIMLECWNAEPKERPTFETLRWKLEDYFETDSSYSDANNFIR
# Chain of UniProt Q9Y243 (whole entry, looked up): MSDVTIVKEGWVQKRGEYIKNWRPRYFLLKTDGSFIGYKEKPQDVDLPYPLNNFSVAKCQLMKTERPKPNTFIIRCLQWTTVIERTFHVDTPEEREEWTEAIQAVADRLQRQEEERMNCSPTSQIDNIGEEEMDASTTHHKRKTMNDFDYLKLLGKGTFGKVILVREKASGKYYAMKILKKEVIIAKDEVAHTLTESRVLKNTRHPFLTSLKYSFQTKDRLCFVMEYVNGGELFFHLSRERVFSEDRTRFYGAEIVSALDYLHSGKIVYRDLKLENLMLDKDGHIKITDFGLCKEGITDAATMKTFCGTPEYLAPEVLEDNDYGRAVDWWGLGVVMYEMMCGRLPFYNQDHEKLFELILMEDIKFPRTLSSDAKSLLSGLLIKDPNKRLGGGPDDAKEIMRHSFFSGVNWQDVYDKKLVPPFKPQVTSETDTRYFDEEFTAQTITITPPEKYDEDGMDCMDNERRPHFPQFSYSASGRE
# Chain of UniProt Q13882 (whole entry, looked up): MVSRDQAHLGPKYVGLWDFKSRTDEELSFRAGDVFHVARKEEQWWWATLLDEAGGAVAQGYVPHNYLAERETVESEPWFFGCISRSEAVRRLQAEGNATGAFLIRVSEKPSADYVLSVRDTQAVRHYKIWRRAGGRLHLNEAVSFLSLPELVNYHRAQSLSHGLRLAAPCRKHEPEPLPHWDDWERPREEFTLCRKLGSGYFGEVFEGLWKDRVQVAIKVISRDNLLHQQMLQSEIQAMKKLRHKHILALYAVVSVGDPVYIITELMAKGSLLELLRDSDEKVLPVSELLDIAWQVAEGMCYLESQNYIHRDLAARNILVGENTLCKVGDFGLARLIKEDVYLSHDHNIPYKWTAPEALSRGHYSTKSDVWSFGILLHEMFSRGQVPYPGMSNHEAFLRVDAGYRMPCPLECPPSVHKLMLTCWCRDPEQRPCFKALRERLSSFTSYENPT
# Chain of UniProt P49841 (whole entry, looked up): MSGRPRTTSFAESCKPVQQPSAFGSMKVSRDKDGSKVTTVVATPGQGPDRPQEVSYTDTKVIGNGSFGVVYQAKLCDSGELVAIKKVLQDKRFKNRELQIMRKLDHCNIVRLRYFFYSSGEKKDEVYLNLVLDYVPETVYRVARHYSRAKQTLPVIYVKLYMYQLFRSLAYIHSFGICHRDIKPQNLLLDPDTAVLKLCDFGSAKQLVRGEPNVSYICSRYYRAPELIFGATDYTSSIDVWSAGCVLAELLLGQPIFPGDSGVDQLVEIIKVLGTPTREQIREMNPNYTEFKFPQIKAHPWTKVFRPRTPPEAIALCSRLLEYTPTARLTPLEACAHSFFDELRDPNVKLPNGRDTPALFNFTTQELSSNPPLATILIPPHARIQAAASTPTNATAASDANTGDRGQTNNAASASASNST

# Block 1
# Compound: c1ccc2c(-c3ccncc3)c[nH]c2c1
# Observed: enzyme activity
# Mode: inhibitor
# Tested at: 0.5 µM
# Baseline: control
target,remaining activity
"Ephrin type-A receptor 3 (EPHA3, Homo sapiens, UniProt P29320)",107%
"Serine/threonine-protein kinase TBK1 (TBK1, Homo sapiens, UniProt Q9UHD2)",93.4%
"Tyrosine-protein kinase Mer (MERTK, Homo sapiens, UniProt Q12866)",93%
"Glycogen synthase kinase-3 beta (GSK3B, Homo sapiens, UniProt P49841)",104%
"Serine/threonine-protein kinase TAO2 (TAOK2, Homo sapiens, UniProt Q9UL54)",92.1%
"Serine/threonine-protein kinase ULK3 (ULK3, Homo sapiens, UniProt Q6PHR2)",83%
"Ribosomal protein S6 kinase alpha-2 (RPS6KA2, Homo sapiens, UniProt Q15349)",89%
"Dual specificity mitogen-activated protein kinase kinase 2 (MAP2K2, Homo sapiens, UniProt P36507)",103%
"Serine/threonine-protein kinase Nek1 (NEK1, Homo sapiens, UniProt Q96PY6)",101%
"MAP kinase-activated protein kinase 2 (MAPKAPK2, Homo sapiens, UniProt P49137)",101%
"Tyrosine-protein kinase JAK3 (JAK3, Homo sapiens, UniProt P52333)",95.3%
"Tyrosine-protein kinase FRK (FRK, Homo sapiens, UniProt P42685)",106%
"Rhodopsin kinase GRK7 (GRK7, Homo sapiens, UniProt Q8WTQ7)",98.4%
"Mitogen-activated protein kinase kinase kinase 5 (MAP3K5, Homo sapiens, UniProt Q99683)",109%
"Angiopoietin-1 receptor (TEK, Homo sapiens, UniProt Q02763)",101%

# Block 2
# Organism: Sarcocystis neurona
# Observed: parasite growth
# Tested at: concentration not given
Compound,inhibition [%]
CN1CCN(c2nc3cc(C(F)(F)F)ccc3n3cccc23)CC1,-6.2
Cc1cccc(CCN2CCC(C(=O)c3ccc(NS(C)(=O)=O)cc3)CC2)n1.Cl.Cl,2
CC(C)NCC(O)c1ccc(O)c(O)c1.Cl (centres unmarked),-2.8
C#C[C@]1(O)CC[C@H]2[C@@H]3CCC4=CC(=O)CC[C@@H]4[C@H]3CC[C@@]21C,-11.8
COc1cc(OC)c(C(=O)CCCN2CCCC2)c(OC)c1.Cl,-18
CN1[C@@H]2CC[C@H]1C[C@@H](OC(c1ccccc1)c1ccccc1)C2.CS(=O)(=O)O,-10.1
CC[C@@H](CO)NCCN[C@@H](CC)CO,-11.9
CCOC(=O)c1ccc(OC(=O)CCCCCN=C(N)N)cc1.CS(=O)(=O)O,-5.6

# Block 3
# SMILES: CCCCCCCCCCCCCCCCOP(=O)([O-])OCC[N+](C)(C)C
# Cell line: THP-1
# Observed: host cell growth
setting,inhibition
0.002 µM,0.37% and -1.4% and -1.09% and -0.34% and -0.23% and -0.37%
1 µM,-0.17% and -4.62% and -0.84% and -0.22% and -0.6% and -1.86%
0.2 µM,-0.35% and -2.26% and -1.5% and -0.49% and -1.44% and -0.41%

# Block 4
# Structure (SMILES): O=C(O)[C@H]1[C@H](Cn2nnc3ccccc3c2=O)CC[C@@H]1C(=O)c1ccc(OCCC2CCOCC2)cc1
# Observed: cell-free assay
# Method: competition with immobilised ligand
# Tested at: 1 µM
target,remaining binding [%]
"Cyclin-dependent kinase 18 (CDK18, Homo sapiens, UniProt Q07002)",84
"Tyrosine-protein kinase ABL1, non-phosphorylated (ABL1, Homo sapiens, UniProt P00519, T315I)",100
"RAC-gamma serine/threonine-protein kinase (AKT3, Homo sapiens, UniProt Q9Y243)",73
"Epidermal growth factor receptor (EGFR, Homo sapiens, UniProt P00533, L861Q)",53
"Protein-tyrosine kinase 6 (PTK6, Homo sapiens, UniProt Q13882)",100
"Serine/threonine-protein kinase Chk2 (CHEK2, Homo sapiens, UniProt O96017)",100
"Discoidin domain-containing receptor 2 (DDR2, Homo sapiens, UniProt Q16832)",100
"Tyrosine-protein kinase ABL1, phosphorylated (ABL1, Homo sapiens, UniProt P00519, H396P)",100
"Cyclin-dependent kinase 7 (CDK7, Homo sapiens, UniProt P50613)",95
"SNF-related serine/threonine-protein kinase (SNRK, Homo sapiens, UniProt Q9NRH2)",95
"Phosphatidylinositol 4,5-bisphosphate 3-kinase catalytic subunit alpha isoform (PIK3CA, Homo sapiens, UniProt P42336, Q546K)",97
"Myosin light chain kinase (MYLK3, Homo sapiens, UniProt Q32MK0)",93
"Receptor-type tyrosine-protein kinase FLT3 (FLT3, Homo sapiens, UniProt P36888, D835V)",92
"Serine/threonine-protein kinase TAO3 (TAOK3, Homo sapiens, UniProt Q9H2K8)",100
"Ribosomal protein S6 kinase beta-1 (RPS6KB1, Homo sapiens, UniProt P23443)",100

# Some of these lines once more (block 4):
target,remaining binding [%]
"Cyclin-dependent kinase 7 (CDK7, Homo sapiens, UniProt P50613)",95
"SNF-related serine/threonine-protein kinase (SNRK, Homo sapiens, UniProt Q9NRH2)",95
"Phosphatidylinositol 4,5-bisphosphate 3-kinase catalytic subunit alpha isoform (PIK3CA, Homo sapiens, UniProt P42336, Q546K)",97
"Myosin light chain kinase (MYLK3, Homo sapiens, UniProt Q32MK0)",93
"Receptor-type tyrosine-protein kinase FLT3 (FLT3, Homo sapiens, UniProt P36888, D835V)",92
